Results pooled from the literature.
Parts stem from different laboratories: compare values within a part only.

Series 1
Target: Histone acetyltransferase KAT6A, winged helix 2, GST fusion (KAT6A, Homo sapiens, UniProt Q92794, residues 85-181)
Method: protein binding microarray
Molecule type: double-stranded DNA, one strand shown
Medium: in vitro
Concentration: not given
Setting: 8-mer, flanks averaged, mean of 2 arrays, mostly near background
Relative to: not given
Reading: higher = stronger binding
Target sequence (chain): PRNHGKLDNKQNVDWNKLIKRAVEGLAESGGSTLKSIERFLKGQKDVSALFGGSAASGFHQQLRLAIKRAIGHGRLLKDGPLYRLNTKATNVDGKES
Sequence	E-score
ATAGAGAA	-0.0209
CTCATGAA	0.0005
ACAAAGAA	0.125
CCTGGTTC	-0.0421
AGTCGGGC	0.144
CAACAGGA	-0.237
AGCCTGAG	0.024
CCCACCCA	-0.12
TCCTTTCA	0.0754
TATGTCAA	0.00139
ACTGCTGG	0.0957
TCGATAGA	0.0692
CAGAAGAG	0.0443
GCACCACA	-0.18
GTTCATAA	-0.104
ATGCGCTC	0.0377
ACAAGTTG	-0.126
AGGGAACT	0.0187
CGAGCTGC	0.117
CGTTCGAG	0.0053
AACTCACC	-0.0311
AAGGATGA	-0.261
AGATAATG	0.00346
AGAGTGAT	-0.00353
CAAAATGA	0.0169

Series 2
Target: Sal-like protein 4, full length isoform A (SALL4, Homo sapiens, UniProt Q9UJQ4, residues 1-1053)
Sequence of UniProt Q9UJQ4 (whole entry, looked up): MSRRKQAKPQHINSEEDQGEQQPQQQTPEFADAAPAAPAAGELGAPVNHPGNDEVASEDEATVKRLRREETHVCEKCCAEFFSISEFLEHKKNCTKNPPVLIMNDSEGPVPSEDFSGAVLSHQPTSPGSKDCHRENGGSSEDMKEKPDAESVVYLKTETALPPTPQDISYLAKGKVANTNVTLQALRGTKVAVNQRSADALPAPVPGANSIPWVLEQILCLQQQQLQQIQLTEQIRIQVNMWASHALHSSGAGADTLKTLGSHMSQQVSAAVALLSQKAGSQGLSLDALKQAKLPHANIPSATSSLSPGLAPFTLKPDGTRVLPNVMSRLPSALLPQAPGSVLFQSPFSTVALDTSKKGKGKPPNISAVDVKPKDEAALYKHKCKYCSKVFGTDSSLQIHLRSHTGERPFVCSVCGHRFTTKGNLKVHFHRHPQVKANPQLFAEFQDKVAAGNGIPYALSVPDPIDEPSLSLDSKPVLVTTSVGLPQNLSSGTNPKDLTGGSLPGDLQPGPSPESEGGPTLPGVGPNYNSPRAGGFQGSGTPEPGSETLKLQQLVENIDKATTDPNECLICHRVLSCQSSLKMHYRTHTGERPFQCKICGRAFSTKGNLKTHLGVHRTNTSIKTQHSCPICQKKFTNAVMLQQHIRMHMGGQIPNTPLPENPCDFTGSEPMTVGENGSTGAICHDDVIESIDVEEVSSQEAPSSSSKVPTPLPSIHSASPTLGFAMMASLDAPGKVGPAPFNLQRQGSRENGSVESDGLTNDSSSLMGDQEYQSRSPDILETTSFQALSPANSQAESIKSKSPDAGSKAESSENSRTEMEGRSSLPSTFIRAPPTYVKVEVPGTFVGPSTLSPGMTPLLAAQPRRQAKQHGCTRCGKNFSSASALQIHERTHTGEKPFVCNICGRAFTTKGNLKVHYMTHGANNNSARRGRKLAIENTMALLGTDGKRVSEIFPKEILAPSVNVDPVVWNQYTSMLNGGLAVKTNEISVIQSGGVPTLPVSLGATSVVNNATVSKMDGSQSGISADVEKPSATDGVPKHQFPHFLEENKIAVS
Method: universal PBM
Molecule type: double-stranded DNA, one strand shown
Medium: in vitro
Concentration: 600 nM
Setting: 8-mer, flanks averaged, mean of replicates
Reading: higher = stronger binding
Sequence	E-score
ACCGCGAT	-0.0762
AAGCATCT	0.104
CGGTATAC	-0.117
GTCGTAAC	0.0823
AACACAGG	-0.148
AGCGTTAA	0.0336
TACGATCA	0.15
GCCGCTAC	-0.358
ATGTGATA	0.265
GGTTAGAC	-0.105
CATCAGAC	0.0379
TATCGAAA	0.27
ACTCAAAG	0.0542
AATGGATA	0.112
AGGCGTCC	-0.302
GACTGCAC	-0.165
ACTAGAGG	-0.107
CACGTCAG	-0.159
GTAGAAAA	0.233
ACTATGCT	0.249
AGGTAACA	0.184
TGACTCCA	-0.0724
CGAAGCGC	-0.251
CATTCCTC	0.0246

Series 3
Target: Centromere-binding protein 1, full length, N-terminal tag (CBF1, Saccharomyces cerevisiae, UniProt P17106, residues 1-351)
Sequence of UniProt P17106 (whole entry, looked up): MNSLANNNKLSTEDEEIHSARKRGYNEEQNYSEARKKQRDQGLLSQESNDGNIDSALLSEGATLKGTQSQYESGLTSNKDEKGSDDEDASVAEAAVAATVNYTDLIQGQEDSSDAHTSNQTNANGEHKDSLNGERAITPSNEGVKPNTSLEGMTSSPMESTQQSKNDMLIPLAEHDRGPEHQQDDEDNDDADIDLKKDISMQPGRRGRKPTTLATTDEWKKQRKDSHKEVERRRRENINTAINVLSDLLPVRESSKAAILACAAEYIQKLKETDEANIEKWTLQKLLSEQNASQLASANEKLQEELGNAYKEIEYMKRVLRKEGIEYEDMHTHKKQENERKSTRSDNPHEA
Method: protein-binding microarray
Molecule type: double-stranded DNA, one strand shown
Medium: in vitro
Concentration: 0.8 µM
Setting: whole 60-bp probe, no competitor
Reading: higher = stronger binding
Constant ends, left off below: … GTCTTGATTCGCTTGACGCTGCTG
Sequence	fluorescence intensity [a.u.]
GAATATCTTACTCATCACGCAAGACAGCAGCAGTAG	582
GAATATTTGTAAGGAAACGTGCTTTCCTCTTCATAG	649
GAATCTGTGGCCACCCATCTCCTGTATATAAGATAG	509
CTAATTGATCAAGGCCACATGCAAAATAGGGAATTC	598
CTATTTTCGACGTTAGACGTGCTTCGGCAGATATTC	501
GAATGGCGAAAAATGCACGCGCGTAAATAATGATAG	651
CTATGTTTTTATAAGCACGTGACTATAATGTTATTC	26900
GAACGTTCTCTTTGTCACCCGCTTGATGTAAAATAG	554
CTAGGCGCCGTGCACCACGTCAATTTGACAGAGTTC	489
CCTAACTACTATAACCAGGTGAGATAGCTTCGTACA	536
CTACAACGCAATACTTACGTCACACCAGCCGTATTC	598
CTAATATTATATTATCACATGCGGTGTAAGAAGTTC	1550
CTACCACGACTACAACATGTGCAAGTACTATCCTTC	635
GAAAACTAGGCATGCCACCAGATTTTGGTGATGTAG	532
CTATACATTACTTGTGACCACCTATTTACGGCATTC	746
GAAGACAGCACTCTGCACGAGCTTTGTGTGTGCTAG	559
CTATGTTAAATTAAAAAGCTGATGTTGCGTAATTTC	531
CTAAGGATAGTGTGCAACGTGGCATAAGCTATGTTC	588
CTATCTTTGCTGCATCATGCATCATATGTTTGGTTC	636
GAATTTGAAGTTTTGCGTGTGACAGACAAGTCCTAG	607
CTACCTCCCACCAGAAAGTCACCTGCTCTCTTATTC	5020
GAATGTCGATTGATAAACGTGATTTTGATGGCCTAG	964
CTATCGTCGATGGCCATCATGATTGCCCTTTTTTTC	488
CTACTGTGTAAACATCAGATGAAGCATTGCCTTTTC	517
GAACATCAATAAGTCATCACCATTAGAGAGTTGTAG	572

Series 4
Target: Prothrombin, mature alpha-thrombin (F2, Homo sapiens, UniProt P00734)
Method: aptamer microarray, sandwich
Molecule type: DNA with 2'F-ANA
Medium: in vitro
Concentration: 200 nM
Setting: whole 15-mer aptamer, many near background
Together with: Cy3 exosite-II aptamer, 400 nM
Reading: higher = stronger binding
Sequence: GGTTGGTGTGGTTGG
Modification	mean fluorescence intensity [a.u.]
2'F-ANA at 1 3 4 6 7 8 13	142
2'F-ANA at 7 8 9 10 11 13	169
2'F-ANA at 1 2 4 5 8 12 14	47.3
2'F-ANA at 3 5 6 8 9 10	53.1
2'F-ANA at 2 3 4 5 7 10 12	79.9
2'F-ANA at 2 4 5 6 7 8 9 12 13	114
2'F-ANA at 3 4 6 7 11 12 13 14	295
2'F-ANA at 2 5 10 13 15	44.7
2'F-ANA at 2 4 6 7 8 10 13	72
2'F-ANA at 2 3 6 8 9 11 13	559
2'F-ANA at 1 2 4 6 8 9 10 14	42.4
2'F-ANA at 1 2 3 4 7 8 9 12 14	91.1
2'F-ANA at 1 3 5 8 9 11 12 15	105
2'F-ANA at 1 2 4 7 10 12	57.1
2'F-ANA at 1 2 4 9 11 13	112
2'F-ANA at 2 3 5 6 7 11 13 15	62.9
2'F-ANA at 2 5 6 7 8 9 10 12 13 14 15	46.9
2'F-ANA at 2 3 4 6 7 8 13	461
2'F-ANA at 1 3 4 8 10 11 12 15	72.7
2'F-ANA at 2 3 4 6 7 9 10 13 14 15	207
2'F-ANA at 1 2 6 7 9 12 13 14 15	60.9
2'F-ANA at 3 4 7 8 11 12 13 14	435
2'F-ANA at 3 4 6 7 8 13 14	317
2'F-ANA at 3 5 6 9 11 13 15	67.4
2'F-ANA at 1 3 4 5 6 8 9 10 12 14	47

Series 5
Target: TAR DNA-binding protein 43, full length, His tag (TARDBP, Homo sapiens, UniProt Q13148, residues 1-414)
Method: RNA Bind-n-Seq
Molecule type: RNA
Medium: in vitro
Concentration: 20 nM
Setting: 6-mer, flanks averaged, single round
Together with: 150 mM KCl
Relative to: input library
Reading: higher = stronger binding
Sequence	6-mer enrichment (R)
UUCGAG	0.79
UAAUCA	0.585
GCAUUU	0.648
CGAAGC	0.781
GGGACG	4.69
UUAUCG	0.596
GAACGA	0.906
UUUCUA	0.579
AUGCAU	0.741
GUCUCG	0.822
CUAUCU	0.544
UACAUG	0.676
UGGCUU	0.717
GUACGG	1.74
AAGGGG	4.17
CCAUAC	0.597
CAGCGG	1.86
GGCUCA	0.971
GUCCGG	1.57
UCUCCA	0.577
CACGAC	0.681
GGUUUC	0.752
CCGGGG	3.59
AGACCC	0.668

For quick reference, copied from above (series 5):
Sequence	6-mer enrichment (R)
GCAUUU	0.648
CGAAGC	0.781
GGGACG	4.69
UUAUCG	0.596
GAACGA	0.906
UUUCUA	0.579
AUGCAU	0.741
GUCUCG	0.822
CUAUCU	0.544
UACAUG	0.676
UGGCUU	0.717
GUACGG	1.74
AAGGGG	4.17
CCAUAC	0.597
CAGCGG	1.86
GGCUCA	0.971
GUCCGG	1.57
UCUCCA	0.577
CACGAC	0.681
GGUUUC	0.752
